Results collected from several papers.
Parts stem from different laboratories: compare values within a part only.
UniProt P08908, sequence (whole entry, looked up): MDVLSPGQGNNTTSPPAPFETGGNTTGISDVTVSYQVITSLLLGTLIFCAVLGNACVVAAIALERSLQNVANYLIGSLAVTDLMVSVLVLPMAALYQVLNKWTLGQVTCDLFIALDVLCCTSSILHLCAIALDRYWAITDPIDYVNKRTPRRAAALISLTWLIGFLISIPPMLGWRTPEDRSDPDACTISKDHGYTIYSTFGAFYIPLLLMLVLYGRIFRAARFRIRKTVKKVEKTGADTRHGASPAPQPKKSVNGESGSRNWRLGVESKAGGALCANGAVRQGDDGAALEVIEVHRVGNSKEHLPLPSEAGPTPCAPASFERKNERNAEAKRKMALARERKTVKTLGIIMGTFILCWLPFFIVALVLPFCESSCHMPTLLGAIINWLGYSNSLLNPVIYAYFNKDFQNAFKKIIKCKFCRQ

Study 1 — cell line: mouse MPNST tumor cells; method: high-content immunofluorescence imaging; measured: nuclear SOX9; concentration: 10 µM; time: 12 h; notes: mean of 2 replicates; reference: DMSO control; reading: higher = more nuclear SOX9; quantity: nuclear SOX9 intensity
Cc1ccc(C(=O)COC(=O)c2cccc(NC(=O)c3ccc([N+](=O)[O-])cc3[N+](=O)[O-])c2)cc1: 102 % of DMSO
COc1ncc2cc(C(=O)Nc3cc(C(=O)NCc4cccc(Cl)c4)ccc3Cl)c(=O)[nH]c2n1: 123 % of DMSO
CCOC(=O)C1=C(C)NC(C)=C(C(=O)OCC)C1c1ccccc1/C=C/C(=O)OC(C)(C)C: 133 % of DMSO
COC1CCN(c2cccc(-c3cc(NC(C)=O)nc(-n4nc(C)cc4C)n3)n2)CC1: 171 % of DMSO
CCOC(=O)[C@@H](C)Oc1cccc2c(=O)n(CC(=O)Nc3ccc4c(c3)OCCO4)ccc12: 106 % of DMSO
CCCc1cc(-c2nc(-c3ccc(C)cc3)cs2)ccn1: 138 % of DMSO
c1ccc(-c2ccc(CNc3nc(-c4ccccn4)nnc3-c3ccccc3)cc2)cc1: 104 % of DMSO
CN1CCCCC1CCN1c2ccccc2Sc2ccc([S+](C)[O-])cc21 (stereo not shown): 150 % of DMSO

Study 2 — cell line: HaCaT; concentration: 100 µM; time: 36 h; quantity: viability
CC#CCn1c(N2CCC[C@@H](N)C2)nc2c1c(=O)n(Cc1nc(C)c3ccccc3n1)c(=O)n2C: 25.7%
O=C(N[C@H](CO)[C@H](O)c1ccc([N+](=O)[O-])cc1)C(Cl)Cl: 114%
CC(C)(C)C(=O)C(Oc1ccc(Cl)cc1)n1ccnc1 (stereo not shown): 75.2%
CN(C/C=C/c1ccccc1)Cc1cccc2ccccc12: 43.9%
Cc1cc(C(C)(C)C)c(O)c(C)c1CC1=NCCN1: 47.8%
CC(C)(C)c1ccc(C(O)CCCN2CCC(C(O)(c3ccccc3)c3ccccc3)CC2)cc1 (stereo not shown): 12.9%
COc1cc(N)c(Cl)cc1C(=O)N[C@@H]1CCN(CCCOc2ccc(F)cc2)C[C@@H]1OC (racemic): 81.9%
Cc1cc2nc3c(=O)[nH]c(=O)nc-3n(C[C@H](O)[C@H](O)[C@H](O)CO)c2cc1C: 95.7%

Mixed results
O=C(Nc1ccc(-n2nc(-c3cccnc3)cc2C(F)(F)F)cn1)c1ccc(-c2ccccc2)c(F)c1
inhibition (HTR1A (Homo sapiens, UniProt P08908); binding, radioligand binding; 10 µM): -3.06%

O=NN(CCCl)C(=O)NCCCl
parasite load (Plasmodium berghei; Huh-7, liver stage; 10 µM, 24 h; reference: control): 76%

DTFDEAFLAAVRSHQG
enrichment score (Saccharomyces cerevisiae; binding, yeast competitive growth sequencing; peptide, cyclin D1-Cln2 strain, peptide tiling library; direction not given): 2.22

Some of these lines once more (study 1):
CCCc1cc(-c2nc(-c3ccc(C)cc3)cs2)ccn1: 138 % of DMSO
